Published values from different studies.
Lines come from different studies, so protocols differ. Numbers after ± are the reported error.
HCRTR1: Orexin/Hypocretin receptor type 1 (HCRTR1, Homo sapiens, UniProt O43613)
Chain of UniProt O43613 (whole entry, looked up): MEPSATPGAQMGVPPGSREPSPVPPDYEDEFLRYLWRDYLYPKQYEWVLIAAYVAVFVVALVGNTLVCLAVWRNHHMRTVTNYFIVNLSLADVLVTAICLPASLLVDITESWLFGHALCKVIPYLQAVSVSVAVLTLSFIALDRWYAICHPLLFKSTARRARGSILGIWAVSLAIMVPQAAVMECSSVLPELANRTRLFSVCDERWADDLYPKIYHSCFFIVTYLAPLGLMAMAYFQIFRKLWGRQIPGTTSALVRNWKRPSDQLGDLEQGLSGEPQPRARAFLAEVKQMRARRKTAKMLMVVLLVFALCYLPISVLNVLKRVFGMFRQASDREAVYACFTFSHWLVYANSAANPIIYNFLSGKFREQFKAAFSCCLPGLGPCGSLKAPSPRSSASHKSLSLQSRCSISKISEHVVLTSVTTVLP
Drd3: D(3) dopamine receptor (Drd3, Rattus norvegicus, UniProt P19020)
Chain of UniProt P19020 (whole entry, looked up): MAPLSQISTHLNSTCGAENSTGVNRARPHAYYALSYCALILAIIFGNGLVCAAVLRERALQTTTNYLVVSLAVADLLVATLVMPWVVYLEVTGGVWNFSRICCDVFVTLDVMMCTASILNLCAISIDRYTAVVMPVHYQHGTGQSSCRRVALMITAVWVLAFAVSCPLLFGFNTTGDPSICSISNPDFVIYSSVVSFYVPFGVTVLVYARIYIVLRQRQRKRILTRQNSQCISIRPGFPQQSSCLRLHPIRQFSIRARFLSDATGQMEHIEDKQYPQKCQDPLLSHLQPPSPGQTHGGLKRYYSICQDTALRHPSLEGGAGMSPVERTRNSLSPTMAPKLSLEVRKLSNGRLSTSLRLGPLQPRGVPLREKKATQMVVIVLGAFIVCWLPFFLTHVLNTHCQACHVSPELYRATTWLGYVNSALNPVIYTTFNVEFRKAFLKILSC
PLA2G4A: Cytosolic phospholipase A2 (PLA2G4A, Homo sapiens, UniProt P47712)
Chain of UniProt P47712 (whole entry, looked up): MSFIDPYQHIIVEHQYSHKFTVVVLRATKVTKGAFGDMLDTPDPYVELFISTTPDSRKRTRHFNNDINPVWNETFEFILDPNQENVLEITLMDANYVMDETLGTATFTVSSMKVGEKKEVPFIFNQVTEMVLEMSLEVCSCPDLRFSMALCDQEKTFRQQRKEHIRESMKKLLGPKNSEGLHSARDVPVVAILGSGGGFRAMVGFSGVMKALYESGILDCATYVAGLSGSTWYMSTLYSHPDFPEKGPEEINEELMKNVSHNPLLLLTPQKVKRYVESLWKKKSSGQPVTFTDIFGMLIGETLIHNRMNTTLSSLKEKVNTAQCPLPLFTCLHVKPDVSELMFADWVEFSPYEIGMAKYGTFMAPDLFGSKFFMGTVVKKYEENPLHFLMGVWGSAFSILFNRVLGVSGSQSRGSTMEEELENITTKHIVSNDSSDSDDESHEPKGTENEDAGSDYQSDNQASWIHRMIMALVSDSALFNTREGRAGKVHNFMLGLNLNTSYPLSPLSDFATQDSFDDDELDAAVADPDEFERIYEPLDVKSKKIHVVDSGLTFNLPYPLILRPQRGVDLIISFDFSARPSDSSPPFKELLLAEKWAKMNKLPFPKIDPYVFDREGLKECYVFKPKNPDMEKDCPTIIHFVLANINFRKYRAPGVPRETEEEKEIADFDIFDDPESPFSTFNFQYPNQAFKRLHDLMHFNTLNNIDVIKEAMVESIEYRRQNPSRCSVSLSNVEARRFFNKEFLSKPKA
Chain of UniProt P55072 (whole entry, looked up): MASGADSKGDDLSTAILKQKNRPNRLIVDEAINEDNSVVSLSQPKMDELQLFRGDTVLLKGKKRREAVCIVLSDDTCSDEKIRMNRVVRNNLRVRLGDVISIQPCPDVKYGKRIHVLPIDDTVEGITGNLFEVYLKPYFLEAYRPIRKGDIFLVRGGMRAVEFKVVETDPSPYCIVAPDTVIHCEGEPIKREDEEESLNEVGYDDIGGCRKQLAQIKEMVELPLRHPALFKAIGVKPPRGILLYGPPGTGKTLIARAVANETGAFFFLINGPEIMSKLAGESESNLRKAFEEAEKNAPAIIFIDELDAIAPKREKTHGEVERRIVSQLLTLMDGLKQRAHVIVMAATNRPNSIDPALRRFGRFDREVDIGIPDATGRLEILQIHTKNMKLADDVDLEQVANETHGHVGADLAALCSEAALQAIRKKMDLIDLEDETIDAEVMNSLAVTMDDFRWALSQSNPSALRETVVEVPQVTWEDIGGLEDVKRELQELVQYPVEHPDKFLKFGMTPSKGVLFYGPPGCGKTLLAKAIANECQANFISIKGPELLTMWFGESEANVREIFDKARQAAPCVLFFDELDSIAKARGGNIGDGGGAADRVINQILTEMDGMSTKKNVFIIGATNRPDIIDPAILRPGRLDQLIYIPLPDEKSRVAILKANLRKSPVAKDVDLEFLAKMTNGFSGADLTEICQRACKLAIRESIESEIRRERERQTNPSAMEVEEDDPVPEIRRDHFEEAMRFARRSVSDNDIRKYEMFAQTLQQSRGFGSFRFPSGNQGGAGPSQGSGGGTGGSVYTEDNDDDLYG
Chain of UniProt O75469 (whole entry, looked up): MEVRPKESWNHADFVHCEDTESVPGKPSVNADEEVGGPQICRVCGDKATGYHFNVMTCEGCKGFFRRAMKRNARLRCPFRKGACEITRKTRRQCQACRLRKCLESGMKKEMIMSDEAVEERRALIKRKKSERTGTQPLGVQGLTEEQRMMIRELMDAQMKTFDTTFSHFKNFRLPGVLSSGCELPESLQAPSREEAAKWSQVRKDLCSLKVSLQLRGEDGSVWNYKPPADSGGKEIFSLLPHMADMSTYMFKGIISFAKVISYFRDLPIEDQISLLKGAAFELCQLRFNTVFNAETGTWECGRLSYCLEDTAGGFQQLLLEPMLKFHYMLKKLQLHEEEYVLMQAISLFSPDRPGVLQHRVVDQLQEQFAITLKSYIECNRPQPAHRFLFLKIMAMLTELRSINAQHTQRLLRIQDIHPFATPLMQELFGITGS

Structure (SMILES) | target | assay | test system | setting | quantity | value
CCCN(CCC1(O)CC(NC(=O)c2ccccc2F)C1)[C@H]1CCc2nc(N)sc2C1 (stereo in doubt) | dopamine D1-like receptor, rat | radioligand binding | rat striatal membranes | added: [3H]SCH23390 | Ki | 53600 ± 8380 nM
COc1cc2c(cc1OC)C(CCCc1ccccc1)N(CC(=O)NCc1ccccc1)CC2 (stereo not drawn) | HCRTR1 | calcium signal, antagonist, fluorescence | – | – | Kb | > 10000 nM
CCCN(CC[C@]1(O)C[C@@H](NS(=O)(=O)c2cccc(Cl)c2)C1)[C@H]1CCc2nc(N)sc2C1 (relative stereo) | Drd3 | ligand displacement, radioligand | – | cell membranes | Ki | 2.5 nM
CCCCCCOc1ccc(OCCCC(=O)C(=O)NCCCCC(=O)O)cc1 | PLA2G4A | enzyme activity, mixed micelle | – | – | XI(50) | 0.013 mole fraction
CCCN(CC[C@]1(O)C[C@@H](NC(=O)c2cccc(F)c2)C1)[C@H]1CCc2nc(N)sc2C1 (relative stereo) | dopamine D1-like receptor, rat | radioligand binding | rat striatal membranes | added: [3H]SCH23390 | Ki | 56600 ± 2730 nM
CCCCCCNC(=O)Nc1ccc(CC2c3cc(OC)c(OC)cc3CCN2CC(=O)NCc2ccccc2)cc1 (stereo not drawn) | HCRTR1 | calcium signal, antagonist, fluorescence | – | – | Kb | > 10000 nM
COc1ccc(CC2c3cc(OC)c(OC)cc3CCN2CC(=O)Nc2ccc(-c3ccccc3)cc2)cc1OC (stereo not drawn) | HCRTR1 | – | – | – | Kd | 2240 ± 110 nM
COc1cc2c(cc1OC)C(Cc1ccc(OCCN3CCCCC3)c(OC)c1)N(CC(=O)NCc1ccccc1)CC2 (stereo not drawn) | HCRTR1 | calcium signal, antagonist, fluorescence | – | – | Kb | > 10000 nM
COc1ccc(CC2c3cc(OCCC(C)C)c(OC)cc3CCN2CC(=O)NCc2ccccc2)cc1OC (stereo not drawn) | HCRTR1 | – | – | – | Kd | 326 ± 46 nM
O=C(/C=C/C=C/c1ccc2c(c1)OCO2)N1CCCCC1 | Nuclear receptor subfamily 1 group I member 2 (NR1I2, Homo sapiens, UniProt O75469) | MDR1 promoter reporter, activator, luciferase reporter | LS180, no PXR transfection | 24 h, 1% charcoal-stripped FBS | EC50 | 2070 nM
CCCN(CC[C@]1(O)C[C@@H](NC(=O)c2cccc(-c3noc(C)n3)c2)C1)[C@H]1CCc2nc(N)sc2C1 (relative stereo) | Drd3 | ligand displacement, radioligand | – | cell membranes | Ki | 0.53 nM
COc1cc2c(cc1OC)C(Cc1cc(OC)c(OC)c(OC)c1)N(CC(=O)NCc1ccccc1)CC2 (stereo not drawn) | HCRTR1 | calcium signal, antagonist, fluorescence | – | – | Kb | > 10000 nM
COc1ccc(CC2c3cc(OC)c(OC)cc3CCN2CC(=O)NCc2ccncc2)cc1OC (stereo not drawn) | HCRTR1 | – | – | – | Kd | 1010 ± 160 nM
CCCCC1c2cc(OC)c(OC)cc2CCN1CC(=O)NCc1ccccc1 (stereo not drawn) | HCRTR1 | calcium signal, antagonist, fluorescence | – | – | Kb | > 10000 nM
CCCN(CC[C@]1(O)C[C@@H](NC(=O)c2cccc(OC)c2)C1)[C@H]1CCc2nc(N)sc2C1 (relative stereo) | dopamine D1-like receptor, rat | radioligand binding | rat striatal membranes | added: [3H]SCH23390 | Ki | 64200 ± 1760 nM
CCCOc1ccc(CC2c3cc(OCCC)c(OC)cc3CCN2CC(=O)NCc2ccccc2)cc1OC (stereo not drawn) | HCRTR1 | calcium signal, antagonist, fluorescence | – | – | Kb | 16.1 nM
CCCCCCOc1ccc(CCCCC(=O)C(=O)NCCCC(=O)OCC)cc1 | PLA2G4A | enzyme activity, mixed micelle | – | – | XI(50) | 0.02 mole fraction
CCCN(CCC1(O)CC(NS(=O)(=O)c2cccc(F)c2)C1)[C@H]1CCc2nc(N)sc2C1 (stereo in doubt) | dopamine D1-like receptor, rat | radioligand binding | rat striatal membranes | added: [3H]SCH23390 | Ki | 117000 ± 10200 nM
O=C1c2cc(O)cc(O)c2C(=O)c2c(O)cc(O)cc21 | Transitional endoplasmic reticulum ATPase (VCP, Homo sapiens, UniProt P55072) | – | – | – | IC50 | 39800 ± 12600 nM
CCCN(CCC1(O)CC(NS(=O)(=O)c2ccc(OC)cc2)C1)[C@H]1CCc2nc(N)sc2C1 (stereo in doubt) | dopamine D1-like receptor, rat | radioligand binding | rat striatal membranes | added: [3H]SCH23390 | Ki | 2610 ± 255 nM
CCCC(=O)Oc1ccc(CC2c3cc(OC)c(OC)cc3CCN2CC(=O)NCc2ccccc2)cc1OC (stereo not drawn) | HCRTR1 | calcium signal, antagonist, fluorescence | – | – | Kb | 43.5 nM
